Published values pooled from the literature.
Several values in a cell are separate wells, animals, samples, runs or records. ± gives the spread as reported. Values after ≈ are worked out from the molar mass of the structure shown.
Chain of UniProt O43293 (whole entry, looked up): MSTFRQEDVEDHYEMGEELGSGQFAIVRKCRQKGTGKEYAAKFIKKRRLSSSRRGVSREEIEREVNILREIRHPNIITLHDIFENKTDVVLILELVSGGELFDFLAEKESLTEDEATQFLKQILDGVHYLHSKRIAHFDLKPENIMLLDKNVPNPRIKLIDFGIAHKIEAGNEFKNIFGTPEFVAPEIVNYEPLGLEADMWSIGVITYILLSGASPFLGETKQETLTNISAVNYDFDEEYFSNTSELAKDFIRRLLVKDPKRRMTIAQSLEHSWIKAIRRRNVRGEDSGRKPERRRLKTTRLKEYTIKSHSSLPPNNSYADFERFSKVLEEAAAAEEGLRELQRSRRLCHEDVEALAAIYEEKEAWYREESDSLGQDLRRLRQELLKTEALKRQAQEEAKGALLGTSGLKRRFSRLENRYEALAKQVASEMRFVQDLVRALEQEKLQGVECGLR

| SMILES | target or system | assay | system | setting | scale | quantity | result |
| --- | --- | --- | --- | --- | --- | --- | --- |
| Cn1c(=O)ccc2ccc(F)c(CCNC[C@H]3CN(c4cnc5c(n4)NC(=O)CO5)C(=O)O3)c21 | Citrobacter spp. |  |  |  |  | MIC50 | 0.25 µg/mL (≈ 0.534 µM) |
| CSC1=NC[C@]2(S1)C(=O)Nc1ccccc12 | Trypanosoma cruzi | [3H]uracil incorporation | amastigotes in rat L6E9 myoblasts | 72 h |  | IC50 | 16.1 µM |
| N=C(N)c1ccc(OCc2ccc(Br)cc2COc2ccc(C(=N)N)cc2)cc1 | Escherichia coli | checkerboard | BW25113 mcr-1 plasmid | unit not given, with: rifampicin | lower = stronger synergy | FICI | ≤ 0.039 |
| CN[C@H](CC(C)C)C(=O)N[C@H]1C(=O)N[C@@H](CC(N)=O)C(=O)N[C@H]2C(=O)N[C@H]3C(=O)N[C@H](C(=O)N[C@H](C(=O)O)c4cc(O)cc(O)c4-c4cc3ccc4O)[C@H](O)c3ccc(c(Cl)c3)Oc3cc2cc(c3O[C@@H]2O[C@H](CO)[C@@H](O)[C@H](O)[C@H]2O[C@H]2C[C@](C)(N)[C@H](O)[C@H](C)O2)Oc2ccc(cc2Cl)[C@H]1O | Gram-negative bacteria |  |  | concentration not given |  | antibacterial activity | inactive |
| CCCCc1ccc(CNc2nc(N(C)C)nc(N(C)C)c2/N=N/c2ccc(Cl)cc2)cc1 | Plutella xylostella | leaf dipping |  | 6.25 mg/L |  | mortality | 40% |
| Cc1ccc(NNC(=O)c2nnc(CC34CC5CC(CC(C5)C3)C4)o2)cc1 | Botryosphaeria dothidea | fungal growth, inhibitor |  | 50 µg/mL |  | inhibition | 100% |
| CC(C)C1NC(=O)C(C(=O)NC(C(=O)NC2C(=O)N3C2SC(C)(C)C3C(=O)O)c2ccccc2)=C1O (stereo not drawn) | Escherichia coli | broth microdilution | isolate IU, CTX-M-14, TEM-1 | no clavulanic acid |  | MIC | > 200 µg/mL |
| COC(=O)[C@@H](N)Cc1ccc(OP2(=O)CO[C@@H](Cn3ccc(N)nc3=O)CO2)cc1 (stereo partly drawn) | human cytomegalovirus | viral replication |  |  |  | IC50 | 0.23 µM |
| Cn1cc(NC(=O)c2cc(NC(=O)CN=C(N)N)cn2C)cc1C(=O)NCCC(=N)N | Bacillus subtilis | bacterial cytological profiling | ATCC 6633 |  |  | DNA length | 2.44 µm and 2.38 µm and 2.59 µm |
| C[C@H]1CN(c2n[nH]c3nc(N[C@H]4CC[C@H](NS(=O)(=O)CCC(F)(F)F)CC4)ncc23)CCO1 | DAPK3 (Homo sapiens, UniProt O43293) | inhibitor, Kinobeads competition profiling |  | 0.16 µM | relative to: vehicle | relative abundance | 1.18 |
| Cl.N=C(CC(O)c1cc2c(F)cc(F)cc2c2cc(C(F)(F)F)ccc12)Nc1ccc(Br)cc1 (stereo not drawn) | Plasmodium berghei | Peters suppressive test | ANKA, infected mice | oral, 4 x 30 mg/kg, day 4 | relative to: untreated control | parasitemia reduction | 99.6% |
| CNC(C)C1CCC(N)C(OC2C(N)CC(N)C(OC3OCC(C)(O)C(NC)C3O)C2O)O1 (stereo not drawn) | Bacillus subtilis | broth microdilution |  |  |  | MLC | 2 µg/mL (≈ 4.19 µM) |
| COC(=O)N[C@H](C(=O)N1CCC[C@H]1c1ncc(-c2ccc(-c3ccc(-c4cnc([C@@H]5CCCN5C(=O)[C@@H](NC(=O)OC)C(C)C)[nH]4)cc3)cc2)[nH]1)C(C)C | Hepatitis C virus |  | replicon cells | 75% effect level, with: NS5B palm site II inhibitor, ratio 2.5:1 |  | combination index | 0.6 |
| CS(=O)(=O)CCCn1c(Cn2c(=O)n(CC(F)(F)F)c3ccncc32)cc2cc(Cl)ccc21 | respiratory syncytial virus | RT-qPCR | hospitalized infants 1-24 months, nasal swab | oral, 9, 6 or 5 mg/kg daily, day 14, high dose by age cohort | relative to: placebo | LS mean difference vs placebo | -1.79 log10 copies/mL |
| CNC(=O)c1cc(Cl)cc(C)c1NC(=O)c1cc(Br)nn1-c1ncccc1Cl | Plutella xylostella |  | Raphanus sativus field plot | 25 ppm, 168 h, 5% water-dispersible granule |  | larval viability | 6.1% and 12.1% and 7.5% |
| Cl.N/C(CC(O)c1cc2c(F)cc(F)cc2c2cc(C(F)(F)F)ccc12)=N\c1ccc(F)cc1 (stereo not drawn) | Plasmodium berghei | Peters test | ANKA, mice | oral, 4 x 30 mg/kg |  | mean survival time | 30 days |
| Nc1ncnc2c1ncn2[C@@H]1O[C@@H]2COP(=O)(O)O[C@H]3[C@@H](O)[C@H](n4cnc5c(=O)[nH]cnc54)O[C@@H]3COP(=O)(O)O[C@H]2[C@H]1O | West Nile virus | RNA sequencing Reactome analysis, measured: Kinesins (R-HSA-983189) | HFF-1 | concentration not given, upregulated pathways, with: West Nile virus infection | relative to: WNV-infected without compound | fold enrichment | 4.95 |
| C[N+]1(C)C2CCC1CC(OC(=O)c1c[nH]c3ccccc13)C2.[I-] (stereo not drawn) | Drosophila melanogaster | liquid food feeding |  | 40 µg/mL, first instar larvae | relative to: solvent | fluorescein ingestion | -12.4% |
| CN1CCN(S(=O)(=O)c2cc([N+](=O)[O-])ccc2N(CCOS(C)(=O)=O)CCOS(C)(=O)=O)CC1 | Homo sapiens | cell viability, resazurin or CellTiter-Glo | sample D BCP-ALL PDX cells, ex vivo | 48 h |  | IC50 | 23.6 µM |
| O=C(NNc1cccc(Cl)c1)c1nnc(CC23CC4CC(CC(C4)C2)C3)o1 | Botryosphaeria dothidea | fungal growth, inhibitor |  | 50 µg/mL |  | inhibition | 100% |
| CC[C@H](C)[C@H](NC(=O)[C@H](CC(N)=O)NC(=O)[C@H](CCCCN)NC(=O)[C@H](CC(=O)O)NC(=O)[C@H](Cc1ccc(O)cc1)NC(=O)[C@H](Cc1ccc(O)cc1)NC(=O)[C@H](Cc1ccc(O)cc1)NC(=O)[C@H](CCCNC(=N)N)NC(=O)[C@H](CC(C)C)NC(=O)CNC(=O)[C@H](CCCNC(=N)N)NC(=O)[C@@H](N)CO)C(=O)N[C@H](C(=O)N[C@@H](Cc1c[nH]cn1)C(=O)N[C@@H](CCCCN)C(=O)N[C@H](C(=O)N[C@@H](C)C(=O)NCC(=O)N[C@@H](CCCCN)C(=O)N[C@@H](CCCNC(=N)N)C(=O)N[C@@H](Cc1ccc(O)cc1)C(=O)N[C@H](C(=O)N[C@@H](Cc1ccc(O)cc1)C(=O)N[C@@H](CCCNC(=N)N)C(=O)N[C@@H](Cc1ccccc1)C(=O)N[C@H](C(=O)O)C(C)C)C(C)C)[C@@H](C)O)[C@@H](C)CC | Micrococcus luteus |  | NCTC 2665 |  |  | MBC | 64 µg/mL (≈ 19.6 µM) |
| C/C(=C\C=C\[C@]1(C)[C@@H](O)CC[C@@]2(C)[C@H]1CC[C@H]1Cc3c([nH]c4cc5c(cc34)C3=CC(C)(C)OC(C)(C)[C@H]3C5)[C@@]12C)C(=O)O | Brugia malayi |  | adult female worms | 10 µM, 144 h |  | motility | 6.9 ± 2% |
| N#Cc1ccc2c(ccc3oc([N+](=O)[O-])cc32)c1 | Mycobacterium marinum | REMA | ATCC BAA-535 |  |  | MIC90 | 0.25 µg/mL (≈ 1.05 µM) |
| CN(C)c1nc(NCc2cccc(F)c2)c(/N=N/c2ccc(Cl)cc2)c(N(C)C)n1 | Plutella xylostella | leaf dipping |  | 200 mg/L, 96 h |  | mortality | 83.3 ± 5.8% |
| CCOC(=O)COc1ccc2ccc3oc([N+](=O)[O-])cc3c2c1 | Mycobacterium marinum | REMA | ATCC BAA-535 |  |  | MIC90 | 0.016 µg/mL (≈ 0.0507 µM) |
| C=CC[C@@H]1c2ccc(OC)c(OC)c2CN2CCc3cc4c(cc3[C@H]12)OCO4 | Staphylococcus aureus |  | P2rx7 A312V/A312V mice, skin wound infection | dose not given, day 1 | relative to: day 0 | relative wound size | 1.22 and 0.69 and 1.07 and 0.94 |
| CC[C@H](C)[C@H](NC(=O)[C@H](C)NC(=O)[C@H](CCCCN)NC(=O)[C@H](CC(C)C)NC(=O)[C@H](C)NC(=O)[C@@H](NC(=O)[C@H](Cc1c[nH]cn1)NC(=O)[C@H](CC(C)C)NC(=O)[C@@H](NC(=O)[C@@H](NC(=O)[C@H](CCCCN)NC(=O)[C@H](C)NC(=O)[C@H](C)NC(=O)[C@H](CO)NC(=O)[C@H](CCCCN)NC(=O)[C@H](Cc1ccccc1)NC(=O)[C@@H](NC(=O)[C@H](CCCCN)NC(=O)[C@H](CC(C)C)NC(=O)[C@H](Cc1ccccc1)NC(=O)[C@H](CO)NC(=O)[C@H](CCCCN)NC(=O)[C@H](Cc1c[nH]c2ccccc12)NC(=O)[C@H](CCCCN)NC(C)=O)[C@@H](C)O)[C@@H](C)O)C(C)C)[C@@H](C)O)C(=O)N[C@@H](CO)C(=O)N[C@@H](CO)C(N)=O | Klebsiella pneumoniae |  |  | 80 strains |  | MIC90 | 8 µg/mL (≈ 2.73 µM) |
| COc1ccc2c(ccc3oc([N+](=O)[O-])c(C)c32)c1 | Mycobacterium marinum | REMA | ATCC BAA-535 |  |  | MIC90 | 0.016 µg/mL (≈ 0.0622 µM) |
| Cl.N=C(CC(O)c1cc2c(F)cc(F)cc2c2cc(C(F)(F)F)ccc12)Nc1ccc(F)c(F)c1 (stereo not drawn) | Plasmodium berghei | Peters suppressive test | ANKA, infected mice | oral, 4 x 10 mg/kg, day 4 | relative to: untreated control | parasitemia reduction | 99.9% |
| C[C@H]1COCCN1c1nc(NCc2cccnc2C(F)(F)F)c2cccnc2n1 | Brugia malayi |  | SCID mouse | dose not given, 6 weeks post-treatment, dosing x14d |  | maximum adult worm burden | 18 worms per mouse |

A few entries again:
| SMILES | target or system | assay | system | setting | scale | quantity | result |
| --- | --- | --- | --- | --- | --- | --- | --- |
| Cn1c(=O)ccc2ccc(F)c(CCNC[C@H]3CN(c4cnc5c(n4)NC(=O)CO5)C(=O)O3)c21 | Citrobacter spp. |  |  |  |  | MIC50 | 0.25 µg/mL (≈ 0.534 µM) |
| C=CC[C@@H]1c2ccc(OC)c(OC)c2CN2CCc3cc4c(cc3[C@H]12)OCO4 | Staphylococcus aureus |  | P2rx7 A312V/A312V mice, skin wound infection | dose not given, day 1 | relative to: day 0 | relative wound size | 1.22 and 0.69 and 1.07 and 0.94 |
| N#Cc1ccc2c(ccc3oc([N+](=O)[O-])cc32)c1 | Mycobacterium marinum | REMA | ATCC BAA-535 |  |  | MIC90 | 0.25 µg/mL (≈ 1.05 µM) |
| O=C(NNc1cccc(Cl)c1)c1nnc(CC23CC4CC(CC(C4)C2)C3)o1 | Botryosphaeria dothidea | fungal growth, inhibitor |  | 50 µg/mL |  | inhibition | 100% |
| Cl.N=C(CC(O)c1cc2c(F)cc(F)cc2c2cc(C(F)(F)F)ccc12)Nc1ccc(Br)cc1 (stereo not drawn) | Plasmodium berghei | Peters suppressive test | ANKA, infected mice | oral, 4 x 30 mg/kg, day 4 | relative to: untreated control | parasitemia reduction | 99.6% |
